Literature values that unrelated publications cite.
Each numbered part shows a few of the values that one paper quotes. ± marks the error that the study gave.

Series 1
Target: O-GlcNAcase human
The IC50 of `CC(=O)Nc1nc(CN2CCC[C@H](Cc3cc(C)nc(C)c3)C2)cs1` is reported as > 10000 nM.
For `CC(=O)Nc1ncc(CN2CCC[C@H](Cc3cc(C)nc(C)c3)C2)s1`, the IC50 was 1.3 nM.
With `CC1CCN(c2ccnc(NCc3cn(C)cn3)n2)CC1` the IC50 was 46 nM.

Single results of other studies
For `NS(=O)(=O)Cc1noc2ccccc12`, activity class read “inactive” (Toxoplasma gondii; parasite growth; concentration not given, published screen).
`CC/C=C(\C)C=O` has a conversion of 78% (YqjM (Old Yellow Enzyme homolog); ene-reductase biotransformation, substrate).
Under “absorption rate constant”, `CCC(C)n1ncn(-c2ccc(N3CCN(c4ccc(OCC5COC(Cn6cncn6)(c6ccc(Cl)cc6Cl)O5)cc4)CC3)cc2)c1=O` (stereo not drawn) is recorded as 0.75 h⁻¹ (first-order absorption model).
`CC(C)=CCCC(C)=CC=O` (mixture of isomers) has a conversion of 49 to 98% (Old Yellow Enzyme 1; substrate).
Under activity class, `O=[N+]([O-])c1cccc2cn[nH]c12` is recorded as “inactive” (Toxoplasma gondii; parasite growth; concentration not given, drug repurposing screen).
`C=CC(=O)N1CCC([C@@H]2CCNc3c(C(N)=O)c(-c4ccc(Oc5ccccc5)cc4)nn32)CC1` has an AUC(0-8h) of 2450 ± 1060 ng·h/mL (human patients; oral, 320 mg once daily, day 1).

Some of these lines once more (single results of other studies):
Under “absorption rate constant”, `CCC(C)n1ncn(-c2ccc(N3CCN(c4ccc(OCC5COC(Cn6cncn6)(c6ccc(Cl)cc6Cl)O5)cc4)CC3)cc2)c1=O` (stereo not drawn) is recorded as 0.75 h⁻¹ (first-order absorption model).
